Results gathered from unrelated publications.
Each line is one published result; not all experiments were run side by side. Several values in a cell are separate wells, animals, samples, runs or records. ± marks the error that the study gave.

CC(C)C[C@@H](NC(=O)[C@H](NC(=O)[C@@H](CCCCN)NC(=O)[C@@H](CCCCN)NC(=O)[C@@H](CC(C)C)NC(=O)[C@@H](Cc1c[nH]c2ccccc12)NC(=O)[C@@H](CCCCN)NC(=O)[C@@H](CC(C)C)NC(=O)[C@@H](CC(C)C)NC(=O)[C@@H](CCCCN)NC(=O)[C@@H](CCCCN)NC(=O)[C@H](N)C(C)C)C(C)C)C(N)=O  minimum haemolytic concentration (sheep red blood cells; 10% haemolysis; 1 h, 37 °C): 102 µM
CNC(=O)CC[C@H](Cc1ccccc1)NC(=O)[C@@H](Cc1ccc(Cl)cc1Cl)NC(=O)[C@H](N)Cc1ccccc1[N+](=O)[O-]  viability (Huh-7-ACE2; CellTiter-Glo; 3.125 µM, 48 h, unit not given; relative to: DMSO): 0.964 and 0.96 and 0.95
CC[C@H](C)[C@H](NC(=O)[C@H](CCCNC(=N)N)NC(=O)CNC(=O)[C@H](CCCCN)NC(=O)[C@@H](NC(=O)CNC(=O)[C@H](Cc1c[nH]cn1)NC(=O)[C@@H](NC(=O)[C@H](CC(C)C)NC(=O)[C@H](CO)NC(=O)CNC(=O)[C@H](CC(C)C)NC(=O)CN)C(C)C)C(C)C)C(=O)N[C@@H](Cc1ccccc1)C(=O)N[C@@H](CC(N)=O)C(=O)N[C@@H](Cc1c[nH]cn1)C(=O)N[C@@H](CCCCN)C(=O)N[C@@H](CC(C)C)C(=O)NCC(=O)N[C@@H](CCSC)C(=O)N[C@@H](C)C(=O)N[C@@H](CO)C(=O)N[C@H](C(=O)N[C@H](C(=O)N[C@@H](CCCCN)C(=O)NCC(=O)N[C@H](C(=O)N[C@@H](CC(C)C)C(=O)N[C@@H](CCC(N)=O)C(=O)N[C@@H](CCCCN)C(=O)N[C@@H](CC(C)C)C(=O)N[C@@H](Cc1c[nH]c2ccccc12)C(=O)N[C@@H](CCC(=O)O)C(=O)O)C(C)C)[C@@H](C)CC)C(C)C  IC50 (HUVEC; cytotoxicity, MTT; 24 h, 37 °C): 22.6 µM
CC(C)C(=O)OC[C@H]1O[C@@](C#N)(n2ccc(N)nc2=O)[C@H](O)[C@@H]1O  CC50 (human PBM cells): 52.3 ± 30.6 µM
CCCC[C@H](N)C(=O)N[C@H]1CSCc2ccc(cc2)-c2ccc(cc2)CSC[C@@H](C(=O)N[C@H](C(N)=O)[C@@H](C)O)NC(=O)[C@H](CCCCN)NC(=O)[C@H](CCCCN)NC(=O)[C@H](CCCCN)NC(=O)[C@H](Cc2ccc(O)cc2)NC(=O)[C@H](CC(N)=O)NC(=O)[C@H](CC(C)C)NC1=O  CP50 (HeLa, HaloTag-GFP-Mito, stably expressing; cytosolic penetration, chloroalkane penetration; 50% HaloTag blocking): ~2 µM
CC(C)Cc1ccc(C(C)C(=O)[O-])cc1.CC(C)Cc1ccc(C(C)C(=O)[O-])cc1.[Cu+2].c1ccncc1.c1ccncc1 (stereo not shown)  IC50 (MRC5; cytotoxicity, MTT; 48 h): > 100 µM
COc1cc(/C=C/C(=O)Oc2ccc(C(F)(F)F)c(C(F)(F)F)c2)ccc1OC(C)=O  subcytotoxic concentration (HaCaT; MTT; 24 h, 10% FBS): 50 µM
CC[C@H](C)[C@H](NC(=O)[C@H](Cc1c[nH]c2ccccc12)NC(=O)[C@H](CCCCN)NC(=O)[C@H](CC(C)C)NC(=O)[C@@H](NC(=O)[C@@H](NC(=O)CNC(=O)[C@@H](N)CCCCN)[C@@H](C)O)[C@@H](C)CC)C(=O)N[C@@H](CC(N)=O)C(=O)N[C@@H](C)C(=O)NCC(=O)N[C@@H](CCC(N)=O)C(=O)N[C@@H](CO)C(=O)N[C@@H](Cc1ccccc1)C(=O)N[C@@H](CCC(=O)O)C(=O)N[C@@H](Cc1c[nH]c2ccccc12)C(=O)N[C@H](C(=O)N[C@@H](Cc1ccc(O)cc1)C(=O)N[C@@H](CCCCN)C(=O)N[C@@H](CCC(N)=O)C(=O)N[C@H](C(=O)N[C@@H](CCCCN)C(=O)N[C@@H](CCCCN)C(=O)N[C@@H](CC(C)C)C(=O)N[C@@H](Cc1c[nH]c2ccccc12)C(=O)N[C@@H](C)C(N)=O)[C@@H](C)CC)[C@@H](C)CC  HD50 (human erythrocytes; hemolysis; pH 7.2; relative to: water complete hemolysis): 150 µg/mL
O=c1n(CCNCCOS(=O)(=O)c2ccccc2)c(=O)n(S(=O)(=O)c2ccccc2)c(=O)n1S(=O)(=O)c1ccccc1  viability (HUVEC; cell growth or viability, MTT; 200 µg/mL, 72 h): 10.4%
C[C@H](NC(=O)Cc1cc(F)cc(F)c1)C(=O)N[C@@H]1C(=O)N(C)c2ccccc2-c2ccccc21  CC50 (NHDF; cell viability, CellTiter-Glo; 48 h, uninfected): 49.3 µM
CC(C)C[C@H](NC(=O)[C@H](CCCNC(=N)N)NC(=O)[C@H](C)NC(=O)[C@H](CC(C)C)NC(=O)[C@H](CCCNC(=N)N)NC(=O)[C@H](C)NC(=O)[C@H](CCCCN)NC(=O)[C@H](CC(C)C)NC(=O)[C@H](CCCNC(=N)N)NC(=O)[C@H](Cc1ccc(O)cc1)NC(=O)[C@H](CC(C)C)NC(=O)[C@H](CCCNC(=N)N)NC(=O)[C@H](C)NC(=O)[C@H](CCCNC(=N)N)NC(=O)[C@H](CC(C)C)NC(=O)[C@H](CCCCN)NC(=O)[C@H](C)NC(=O)[C@H](CC(C)C)NC(=O)[C@H](CCCNC(=N)N)NC(=O)[C@H](C)NC(=O)[C@@H](N)CCCCN)C(N)=O  LC50 (human erythrocytes; haemolysis): 104 µM
CC[C@H](C)[C@H](NC(=O)[C@H](C)NC(=O)[C@H](CCCCN)NC(=O)[C@H](CC(C)C)NC(=O)[C@@H](N)Cc1ccccc1)C(=O)N[C@@H](CCCCN)C(=O)N[C@@H](CCCCN)C(=O)N[C@@H](Cc1ccccc1)C(=O)NCC(=O)N[C@@H](CCCCN)C(=O)N[C@@H](CCC(=O)O)C(=O)N[C@@H](Cc1ccccc1)C(=O)N[C@@H](CCCCN)C(=O)N[C@@H](CCCCN)C(=O)N[C@H](C(=O)NCC(=O)N[C@@H](C)C(=O)N[C@@H](CCCCN)C(=O)N[C@@H](CC(C)C)C(=O)N[C@@H](CCCCN)C(=O)O)[C@@H](C)CC  viability (HaCaT; cell growth or viability, MTT; 64 µg/mL): 85.3%
CNC(=O)C[C@H](Cc1ccccc1)NC(=O)[C@@H](Cc1ccc(Cl)cc1Cl)NC(=O)[C@H](N)Cc1ccccc1C#N  viability (Huh-7-ACE2; CellTiter-Glo; 0.0061 µM, 48 h, unit not given; relative to: DMSO): 0.945 and 0.91 and 0.874
O=C1NC2(CC2)COc2ncc(F)cc2[C@H]2COCCN2c2ccn3ncc1c3n2  organ-to-body weight ratio (Sprague-Dawley rat, male, kidneys; oral, 2.5 mg/kg/day, 4 weeks, end of treatment): 0.725 ± 0.057%
CNC(=O)C[C@H](Cc1ccncc1)NC(=O)[C@@H](Cc1cccc(Br)c1)NC(=O)[C@@H](N)Cc1cccc(F)c1  viability (Huh-7-ACE2; CellTiter-Glo; 0.0244 µM, 48 h, unit not given; relative to: DMSO): 0.969 and 0.906 and 0.923
CCN(CCCCOc1ccc(CCC(=O)N2CCC(Cc3ccccc3)CC2)cc1OC)Cc1ccccc1  Papp(A-B) (Caco-2 monolayer; 20 µM, 120 min): 8.84 ± 0.2 ×10⁻⁶ cm/s
